Experimental data gathered from unrelated publications.
Each line is one published result; not all experiments were run side by side. Numbers after ± are the reported error.

| SMILES | assay | test system | conditions | measurement | result |
| --- | --- | --- | --- | --- | --- |
| O=C(NCCCN(CCCCN(CCCNC(=O)c1cccc(=O)n1[O-])C(=O)c1cccc(=O)n1[O-])C(=O)c1cccc(=O)n1[O-])c1cccc(=O)n1[O-].[89Zr+4] | radio-TLC | PBS | 5 d, pH 7.4, 37 °C, added: Ga^3+ 10-fold excess | intact complex | 97.3 ± 1.9% |
| N[C@@H]1CCCC[C@H]1N.O=C1[O][Pt]2([O]C1=O)[O]C(=O)C(=O)[O]2 |  | PBS | 24 h, pH 7.4, 37 °C | intact compound remaining | < 45% |
| N[C@H](CSC(F)(F)[18F])C(=O)O |  | PBS | 2 h, pH 7.4, 37 °C | intact tracer | > 95% |
| C[C@@H](NC(=O)[C@@H](Cc1ccccc1)NC(=O)[C@@H](Cc1c[nH]cn1)NC(=O)[C@@H](Cc1ccc(O)cc1)NC(=O)[C@@H](CCC(=O)O)NC(=O)[C@@H](CO)NC(=O)[C@H](N)CCC(N)=O)C(=O)O | HPLC | human serum | 1 mg/mL, 2 h, 37 °C | intact peptide remaining | 100% |
| CC(=O)N([O-])CCCCCNC(=O)CCC(=O)N([O-])CCCCCNC(=O)CCC(=O)N([O-])CCCCCN.[89Zr+4] | radio-iTLC | aqueous buffer | 1 h, pH 5.5, 37 °C, EDTA challenge, added: 100-fold excess EDTA | intact complex | 89.6 ± 0.7% |
| C[C@@H](O)[C@H](NC(=O)[C@@H]1CSSC[C@H](NC(=O)[C@@H](Cc2ccccc2)NC(=O)CN2CCN(CC(=O)O)CCN(CC(=O)O)CCN(CC(=O)O)CC2)C(=O)N[C@@H](Cc2ccc(O)cc2)C(=O)N[C@H](Cc2c[nH]c3ccccc23)C(=O)N[C@@H](CCCCN)C(=O)N[C@@H]([C@@H](C)O)C(=O)N1)C(=O)O | radio-TLC | mouse serum | 5 d, 37 °C | intact radioligand | > 95% |
| NC12CNCCNCC(NCc3ccc(CNC(=O)CCCC(=O)NCc4ccc(-c5nncnn5)cc4)cc3)(CNCCNC1)CNCCNC2.[64Cu+2] |  | human serum | 4 h, 37 °C | intact compound | 81.2 ± 3.7% |
| O=C(O)CC[C@H](NC(=O)N[C@@H](CCC(=O)NCCCCCNC(=O)CN1CCNCCN(Cc2cccc(C(=O)[O-])n2)CC1)C(=O)[O-])C(=O)O.[64Cu+2] | radio-HPLC | PBS | 12 h, room temperature | intact complex | 88.7% |
| O=C([O-])CN1CCN(CC(=O)[O-])CCN(CC(=O)NCC2CCC(C(=O)NC(Cc3ccc4ccccc4c3)C(=O)NCCCCC(NC(=O)NC(CCC(=O)O)C(=O)O)C(=O)O)CC2)CCN(CC(=O)[O-])CC1.[44Sc+3] (stereo not shown) | transchelation stability |  | 1 h, 37 °C, added: EDTA 10 mM | intact complex | 97.3 ± 0.1% |
| O=C([O-])CN1CCN(CC(=O)[O-])CCN(C(CCC(=O)NCCCCCNC(=O)CCC(NC(=O)NC(CCC(=O)O)C(=O)O)C(=O)O)C(=O)O)CC1.[64Cu+2] (stereo not shown) | radio-HPLC | PBS | 12 h, room temperature | intact complex | 93.5% |
| CC1=CC(C)=[N+]2C1=C(CCCC(=O)NCCCCCC(=O)NCCCC[C@H](NC(=O)N[C@@H](CCC(=O)O)C(=O)O)C(=O)O)c1c(C)cc(C)n1[B-]2(F)[18F] (stereo partly shown) | HPLC | PBS | 2 h, pH 7.4 | intact radiotracer | > 97% |
| C[C@]12CC[C@@H]3c4ccc(OCC(=O)N[C@@H](CCCCNC(=O)CN5CCN(CC(=O)[O-])CCN(CC(=O)[O-])CCN(CC(=O)[O-])CC5)C(=O)O)cc4CC[C@H]3[C@@H]1CCC2=O.[177Lu+3] | radio-HPLC | human plasma | 4 h, 37 °C | intact radiotracer | > 80% |
| O=C(NCC1OC2CCC=CCCC2O1)c1ccc([18F])nc1 (stereo not shown) |  | mouse plasma | 2 h, 37 °C | intact tracer remaining | 79 ± 0.07% |

A few entries again:
| SMILES | assay | test system | conditions | measurement | result |
| --- | --- | --- | --- | --- | --- |
| CC1=CC(C)=[N+]2C1=C(CCCC(=O)NCCCCCC(=O)NCCCC[C@H](NC(=O)N[C@@H](CCC(=O)O)C(=O)O)C(=O)O)c1c(C)cc(C)n1[B-]2(F)[18F] (stereo partly shown) | HPLC | PBS | 2 h, pH 7.4 | intact radiotracer | > 97% |
| C[C@]12CC[C@@H]3c4ccc(OCC(=O)N[C@@H](CCCCNC(=O)CN5CCN(CC(=O)[O-])CCN(CC(=O)[O-])CCN(CC(=O)[O-])CC5)C(=O)O)cc4CC[C@H]3[C@@H]1CCC2=O.[177Lu+3] | radio-HPLC | human plasma | 4 h, 37 °C | intact radiotracer | > 80% |
